Assay results gathered from unrelated publications.
Each numbered part is a random draw from the data of one study; scales do not carry over between parts. Positions count from the first letter of the parent shown.

Sample 1
Target: Histone acetyltransferase KAT6A, winged helix 1, GST fusion (KAT6A, Homo sapiens, UniProt Q92794, residues 1-85)
Technique: protein binding microarray
Molecule type: double-stranded DNA, one strand shown
Matrix: in vitro
Concentration: not given
Setting: 8-mer, flanks averaged, mean of 2 arrays, mostly near background
Reference: not given
Direction: higher = stronger binding
Construct (chain): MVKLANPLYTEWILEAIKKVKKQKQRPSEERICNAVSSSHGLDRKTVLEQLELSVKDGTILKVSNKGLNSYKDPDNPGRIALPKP
Strand	E-score
GCTGCGCC	0.229
CGTGCACA	-0.0684
GTCATTCA	-0.1
AAATTGGC	-0.0867
AGAGTCTA	-0.171
TAAGGCTA	-0.137
AAACGGTG	-0.0648
GATGCCCC	0.006
GGGTCTTA	0.0614
CTCCTCCC	-0.077
GAGGGTGC	-0.0544
GGAACAAC	0.0477
GTCTGAAA	-0.168
AATGTGAT	0.0329
AACGGCTT	0.296

Sample 2
Target: CCNE2, cyclin fold, Cln2 fusion (human)
Technique: yeast growth competition, sequencing
Matrix: yeast
Setting: strong parent motif
Reference: not given
Direction: higher = stronger binding
Starting sequence: PKN2 docking peptide (human); VSAVRKLDFSDTM
Substitution	normalised enrichment score
VSAVRKADFSDTM [L7A]	-0.0257
VSAVRKLYFSDTM [D8Y]	3.69
VSAVRYLDFSDTM [K6Y]	1.54
VSANRKLDFSDTM [V4N]	1.22
VSAVRKLDFSATM [D11A]	5.22
VSAWRKLDFSDTM [V4W]	0.761
VSAVRKLDFSDGM [T12G]	4.14
VSAVRKLSFSDTM [D8S]	3.84
VWAVRKLDFSDTM [S2W]	2.81
VSAVRGLDFSDTM [K6G]	0.375
VSAVRKLDFSPTM [D11P]	4.53

Sample 3
Target: RNA binding protein fox-1 homolog 2, RRM domain, GST-SBP tag (RBFOX2, Homo sapiens, UniProt O43251-10, residues 100-194)
Technique: RNA Bind-n-Seq
Molecule type: RNA
Matrix: in vitro
Concentration: 365 nM
Setting: natural RNA segment, single round, ends assumed
Reference: no-protein control
Direction: higher = stronger binding
Shared flanks, not repeated: GGGAGUUCUACAGUCCGACGAUC … UGGAAUUCUCGGGUGCCAA
Strand	RBNS enrichment (R)
AUGUCCCUCCCCUCACUGCCCCACAUUCUCCCAGUGGCUCUACCAGCCUCACCCAUCAAACCAGUGAAUUUCUCAAUCUUGCCUCACAGUGACUGCAGCGCCAAGCGGCA	0.889
AGGAGGGCGAUGUGCGCCCUCUUUCACUUUUUUUCUUCUAGGUCUCCAGGUCCCGGAGGGGAUUUGUGGACCUCUCUUGUCUCCCCACCACUCCAGUGCAUUUCCGCCUG	0.572
GGUCUCAUUGAAGACGACACGUACUACCCCAUAAGCUAGUAAGCCAGCAAGAAAGGCCAUGCCACCUGCCCUUGACUACACAGGAACAGUGAACAGCAUUUUCGUUCCUG	1.5
GCCCUUUUAGAGUCUCUGUGUGAACCCAACUCUACUGAACUUAAACACCUUCCAAACAGUGGCAGGGGCCACAGUGGCAGACAGGGUAGAGUACCCCAGGCAGUUUCUCA	0.435
ACUGACAUGUUAACACCUGAUCACUCCCCCAGGCCCUUUUCCUGCCCCAUCCCUCCUAGGAAGAGAGAACUUUGCUGACGAUCUCACUACUUUUGAAGAAAAGAAGCCCU	0.843
AUAAUGUUCACUUUUUAUAGUGUGUCCUUUAUUCUAAACAGUAAAGUGGUUUUAUUUCUAUCACACAUCUGCUGUCUCUUGCCUUGUUGUGUUCUGACGCCACGGGGAGU	0.785
GGUCUGGGGUAACAGCCUCUUCCCAGCACCCACCUGCCAGCCCUGCUUGCCUGGCCCUGUCCUGGACCCAGCUUUGCUAGGUCUCCUUGGAAACCAGGCCUGGGCCUCAA	0.683
GGGAGGCACGAGCCAGAGACCAGGACCUGCAGGUCCUUUGCUGCUGGGAACUCUCCCAUUUUCAGGUUUCUAGAGCUGUCGAUAAAAUCCUGUGAACUGAGAGCGAGGAG	1.01

Single results of other studies
Substance	target	assay	test system	conditions	how to read	endpoint	result
PhoQ, residues 284 288 289 292 302 303 AGGLSV	PhoP, residues 12 14 15 18 19 TQCLL (Escherichia coli, UniProt P23836)	Sort-seq, item: YFP reporter	E. coli	PhoQ-PhoP variant library, with: 10 µM Mg2+	reference: high Mg2+ state, higher = stronger signaling	fold induction	1.3

Excerpt of the above (sample 1):
Strand	E-score
AAATTGGC	-0.0867
AGAGTCTA	-0.171
TAAGGCTA	-0.137
AAACGGTG	-0.0648
GATGCCCC	0.006
